{"data": "Measured values pooled from the literature", "UniProt Q96FL8, sequence (whole entry, looked up)": "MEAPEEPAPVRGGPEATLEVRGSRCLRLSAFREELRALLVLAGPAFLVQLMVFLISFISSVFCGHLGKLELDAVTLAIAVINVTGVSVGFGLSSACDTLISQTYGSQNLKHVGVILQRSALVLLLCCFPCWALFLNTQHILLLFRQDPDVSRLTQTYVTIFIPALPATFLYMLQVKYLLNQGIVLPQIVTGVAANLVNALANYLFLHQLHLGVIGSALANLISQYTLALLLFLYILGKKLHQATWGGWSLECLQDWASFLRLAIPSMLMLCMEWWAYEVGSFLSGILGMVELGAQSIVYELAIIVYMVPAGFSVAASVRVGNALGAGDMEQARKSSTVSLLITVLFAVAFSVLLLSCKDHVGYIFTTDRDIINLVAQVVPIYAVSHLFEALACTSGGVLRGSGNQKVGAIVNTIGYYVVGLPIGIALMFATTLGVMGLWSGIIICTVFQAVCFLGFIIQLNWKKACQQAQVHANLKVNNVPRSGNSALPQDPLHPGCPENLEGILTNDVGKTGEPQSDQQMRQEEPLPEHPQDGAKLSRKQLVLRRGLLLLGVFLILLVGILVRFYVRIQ", "UniProt P25090, sequence (whole entry, looked up)": "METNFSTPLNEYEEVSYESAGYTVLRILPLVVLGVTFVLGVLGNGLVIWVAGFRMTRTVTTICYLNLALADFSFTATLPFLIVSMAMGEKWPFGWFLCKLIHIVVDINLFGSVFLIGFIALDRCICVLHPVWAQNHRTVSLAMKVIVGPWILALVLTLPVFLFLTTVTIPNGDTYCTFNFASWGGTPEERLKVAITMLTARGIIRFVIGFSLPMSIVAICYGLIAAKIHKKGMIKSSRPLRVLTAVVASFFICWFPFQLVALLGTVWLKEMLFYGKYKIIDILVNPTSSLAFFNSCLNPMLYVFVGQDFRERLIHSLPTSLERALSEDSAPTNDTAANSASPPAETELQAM", "UniProt Q8IVT5, sequence (whole entry, looked up)": "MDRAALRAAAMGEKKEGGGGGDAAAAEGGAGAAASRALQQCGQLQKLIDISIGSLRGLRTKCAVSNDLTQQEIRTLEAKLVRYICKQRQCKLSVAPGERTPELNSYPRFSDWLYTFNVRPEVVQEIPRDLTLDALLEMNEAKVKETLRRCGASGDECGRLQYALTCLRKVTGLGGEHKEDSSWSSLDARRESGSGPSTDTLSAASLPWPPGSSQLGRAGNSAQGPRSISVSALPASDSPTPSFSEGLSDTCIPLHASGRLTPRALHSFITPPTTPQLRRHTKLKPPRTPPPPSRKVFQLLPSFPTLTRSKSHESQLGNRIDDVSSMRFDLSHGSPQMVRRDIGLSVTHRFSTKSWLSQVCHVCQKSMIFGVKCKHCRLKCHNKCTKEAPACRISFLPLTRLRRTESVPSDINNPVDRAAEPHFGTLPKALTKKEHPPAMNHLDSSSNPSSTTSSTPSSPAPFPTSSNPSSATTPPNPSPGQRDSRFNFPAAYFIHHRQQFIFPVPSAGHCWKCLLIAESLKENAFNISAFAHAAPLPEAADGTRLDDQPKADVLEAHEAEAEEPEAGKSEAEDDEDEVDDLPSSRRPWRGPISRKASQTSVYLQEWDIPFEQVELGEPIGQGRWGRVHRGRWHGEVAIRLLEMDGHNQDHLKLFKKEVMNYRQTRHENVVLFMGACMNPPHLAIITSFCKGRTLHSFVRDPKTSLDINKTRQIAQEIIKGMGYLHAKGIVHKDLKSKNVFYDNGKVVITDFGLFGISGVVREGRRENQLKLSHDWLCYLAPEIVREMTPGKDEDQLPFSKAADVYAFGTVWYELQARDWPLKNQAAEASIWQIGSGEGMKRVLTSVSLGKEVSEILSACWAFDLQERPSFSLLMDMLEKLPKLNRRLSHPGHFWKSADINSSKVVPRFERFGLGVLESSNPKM"}
{"Structure (SMILES)": "C[C@H]1CN(c2n[nH]c3nc(N[C@H]4CC[C@H](NS(=O)(=O)CCC(F)(F)F)CC4)ncc23)CCO1", "tested on": "Kinase suppressor of Ras 1 (KSR1, Homo sapiens, UniProt Q8IVT5)", "assay": "inhibitor, Kinobeads competition profiling", "conditions": "0.032 µM", "how to read": "relative to: vehicle", "quantity": "relative abundance", "result": 1.09}
{"Structure (SMILES)": "Cc1cc(C(=O)NC(C)(C)COc2cccc3c2C(N)=NS(=O)(=O)N3)cc(C)n1", "tested on": "Salmonella typhimurium", "assay": "Ames test", "system": "TA100", "conditions": "500 µg/plate, without S9", "how to read": "relative to: treated over solvent", "quantity": "revertant ratio", "result": 1.2}
{"Structure (SMILES)": "CC[C@H](C)[C@H](NC(=O)[C@H](CCCCN)NC(=O)[C@H](CCCCN)NC(=O)[C@H](CCCCN)NC(=O)[C@H](CCCCN)NC(=O)[C@H](CCCCN)NC(=O)[C@@H](N)CCCCN)C(=O)N[C@@H](CO)C(=O)N[C@@H](Cc1ccccc1)C(=O)N[C@@H](CC(C)C)C(=O)NCC(=O)N[C@@H](CO)C(=O)N[C@@H](CCCCN)C(=O)N[C@H](C(=O)N[C@H](C(=O)N[C@H](C(=O)N[C@@H](CC(C)C)C(=O)N[C@@H](CC(C)C)C(=O)N[C@@H](CCCCN)C(=O)N[C@@H](CCCNC(=N)N)C(N)=O)C(C)C)C(C)C)C(C)C", "tested on": "human erythrocytes", "conditions": "400 µM, 1 h", "how to read": "relative to: Triton X-100", "quantity": "hemolysis", "result": "20%"}
{"Structure (SMILES)": "CC[C@H](C)[C@H](NC(=O)[C@H](Cc1ccccc1)NC(=O)[C@H](CCC(=O)O)NC(=O)[C@H](CCCNC(=N)N)NC(=O)[C@H](C)NC(=O)[C@H](C)NC(=O)[C@H](CCC(N)=O)NC(=O)[C@H](CCC(=O)O)NC(=O)[C@H](CCC(=O)O)NC(=O)[C@H](CC(C)C)NC(=O)[C@H](Cc1ccc(O)cc1)NC(=O)[C@H](CO)NC(=O)[C@H](CO)NC(=O)[C@@H](NC(=O)[C@H](CC(=O)O)NC(=O)[C@H](CO)NC(=O)[C@@H](NC(=O)[C@H](Cc1ccccc1)NC(=O)[C@@H](NC(=O)CNC(=O)[C@H](CCC(=O)O)NC(=O)[C@H](C)NC(=O)CCc1c[nH]cn1)[C@@H](C)O)[C@@H](C)O)C(C)C)C(=O)N[C@@H](C)C(=O)N[C@@H](Cc1c[nH]c2ccccc12)C(=O)N[C@@H](CC(C)C)C(=O)N[C@H](C(=O)N[C@@H](CCCNC(=N)N)C(=O)NCC(=O)N[C@@H](CCCNC(=N)N)C(=O)N[C@@H](CCCCNC(=O)COCCOCCNC(=O)COCCOCCNC(=O)CC[C@H](NC(=O)CCCCCCCCCCCCCCCCC(=O)O)C(=O)O)C(=O)NCC(=O)NCC(=O)N[C@@H](CO)C(=O)N[C@@H](CCCCNc1c(NCCCCCN(O)C(=O)CCC(=O)NCCCCCN(O)C(=O)CCC(=O)NCCCCCN(O)C(C)=O)c(=O)c1=O)C(=O)O)C(C)C [zirconium-89 labelled]", "system": "rat, duodenum content", "conditions": "intravenous, 3 nmol/kg, 4 h", "quantity": "tissue uptake", "result": "0.13 %ID/g"}
{"Structure (SMILES)": "CCCCc1nc(Cl)c(CO)n1Cc1ccc(-c2ccccc2-c2nn[nH]n2)cc1", "tested on": "Multidrug and toxin extrusion protein 1 (SLC47A1, Homo sapiens, UniProt Q96FL8)", "assay": "transport, inhibitor", "system": "transiently transfected cells", "conditions": "100 µM, 10 (unit not given), together with: metformin", "quantity": "inhibition", "result": "28.6%"}
{"Structure (SMILES)": "C[C@@H](O)[C@@H](CO)NC(=O)[C@@H](CCCNC(=N)N)NC(=O)[C@@H]1CCCN1C(=O)[C@@H]1CSSC[C@H](NC(=O)[C@H](Cc2ccccc2)NC(=O)CN2CCN(CC(=O)O)CCN(CC(=O)O)CCN(CC(=O)O)CC2)C(=O)N[C@@H](Cc2ccc(O)cc2)C(=O)N[C@@H](Cc2ccccc2)C(=O)N[C@@H](CCC(N)=O)C(=O)N[C@@H](CC(N)=O)C(=O)N1 [gallium-68 labelled]", "system": "healthy Wistar rat, liver", "conditions": "intravenous, 8 MBq, 30 min, individual animals", "quantity": "tissue uptake", "result": "0.46 %ID/g"}
{"Structure (SMILES)": "COc1cc2c(Oc3ccc4[nH]c(C)cc4c3F)ccnc2cc1OCC1(N)CC1", "system": "paediatric recurrent refractory sarcoma", "conditions": "10 mg", "quantity": "grade 1 or 2 Headache", "result": "25%"}
{"Structure (SMILES)": "CN1CC[C@@H](c2c(O)cc(O)c3c(=O)cc(-c4ccc(C(F)(F)F)cc4Cl)oc23)[C@@H]1CO", "assay": "refers to: Constipation", "system": "AML", "conditions": "oral, 150 mg, intermittent dosing", "quantity": "patients with adverse event", "result": "50%"}
{"Structure (SMILES)": "CC[C@@H](C)[C@@H](NC(=O)[C@@H](CC(C)C)NC(=O)[C@H](NC(=O)[C@H](NC(=O)[C@H](NC(=O)[C@@H](CCCCN)NC(=O)[C@@H](CCCCN)NC(=O)[C@@H](CCCCN)NC(=O)[C@H](N)CCCCN)C(C)C)[C@H](C)CC)[C@H](C)CC)C(=O)N[C@H](CO)C(=O)N[C@H](CC(C)C)C(=O)N[C@H](CCCCN)C(=O)N[C@H](CCCCN)C(=O)N[C@H](CCCCN)C(=O)N[C@H](CCCCN)C(=O)N[C@H](Cc1ccccc1)C(=O)N[C@H](CO)C(=O)N[C@H](C)C(=O)N[C@H](Cc1ccc(O)cc1)C(N)=O", "tested on": "human erythrocytes", "conditions": "400 µM, 1 h", "how to read": "relative to: Triton X-100", "quantity": "hemolysis", "result": "30%"}
{"Structure (SMILES)": "O=C1Nc2cc3[nH]nc(-c4ccncc4)c3cc2CN1Cc1ccccc1", "assay": "CTCAE v4.03", "system": "advanced solid tumour patients", "conditions": "intravenous, 7.2 mg/kg, schedules 1/2", "quantity": "patients with abdominal pain", "result": "40%"}
{"Structure (SMILES)": "OC(CCN1CC=C(c2ccc(F)cc2)CC1)c1ccc(F)c2ccccc12 (stereo not shown)", "tested on": "Salmonella typhimurium", "assay": "SOS/umu test", "system": "TA1535/pSK1002, TGA medium", "conditions": "0.001 mg/mL, 4 h, together with: rat liver S9", "quantity": "survival", "result": "87.6%"}
{"Structure (SMILES)": "COc1cc(Nc2ncc(F)c(Nc3ccc4c(n3)NC(=O)C(C)(C)O4)n2)cc(OC)c1OC", "tested on": "N-formyl peptide receptor 2 (FPR2, Homo sapiens, UniProt P25090)", "quantity": "IC50", "result": "> 10 µM"}
{"Structure (SMILES)": "CO[C@H]1C[C@@H]2CC[C@@H](C)[C@@](O)(O2)C(=O)C(=O)N2CCCC[C@H]2C(=O)O[C@H]([C@H](C)C[C@@H]2CC[C@@H](OC(=O)NCCOCCOCCOCCOCCOCCOCCOCCOCCC(=O)N3CCc4cc(Cn5nc(-c6ccc7oc(N)nc7c6)c6c(N)ncnc65)ccc4C3)[C@H](OC)C2)C[C@@H](O)[C@H](C)/C=C(\\C)[C@@H](O)[C@@H](OC)C(=O)[C@H](C)C[C@H](C)/C=C/C=C/C=C/1C", "system": "patients with advanced solid tumours", "conditions": "intravenous, dose not given, grade ≥3", "quantity": "incidence of Nausea TRAE", "result": "1.8%"}
{"note": "Repeated from above:"}
{"Structure (SMILES)": "CC[C@H](C)[C@H](NC(=O)[C@H](CCCCN)NC(=O)[C@H](CCCCN)NC(=O)[C@H](CCCCN)NC(=O)[C@H](CCCCN)NC(=O)[C@H](CCCCN)NC(=O)[C@@H](N)CCCCN)C(=O)N[C@@H](CO)C(=O)N[C@@H](Cc1ccccc1)C(=O)N[C@@H](CC(C)C)C(=O)NCC(=O)N[C@@H](CO)C(=O)N[C@@H](CCCCN)C(=O)N[C@H](C(=O)N[C@H](C(=O)N[C@H](C(=O)N[C@@H](CC(C)C)C(=O)N[C@@H](CC(C)C)C(=O)N[C@@H](CCCCN)C(=O)N[C@@H](CCCNC(=N)N)C(N)=O)C(C)C)C(C)C)C(C)C", "tested on": "human erythrocytes", "conditions": "400 µM, 1 h", "how to read": "relative to: Triton X-100", "quantity": "hemolysis", "result": "20%"}
{"Structure (SMILES)": "COc1cc(Nc2ncc(F)c(Nc3ccc4c(n3)NC(=O)C(C)(C)O4)n2)cc(OC)c1OC", "tested on": "N-formyl peptide receptor 2 (FPR2, Homo sapiens, UniProt P25090)", "quantity": "IC50", "result": "> 10 µM"}
